Results of several laboratories.
Each numbered part is a random draw from the data of one study; scales do not carry over between parts. Several values in a cell are separate wells, animals, samples, runs or records.
Sequence of UniProt P48729 (whole entry, looked up): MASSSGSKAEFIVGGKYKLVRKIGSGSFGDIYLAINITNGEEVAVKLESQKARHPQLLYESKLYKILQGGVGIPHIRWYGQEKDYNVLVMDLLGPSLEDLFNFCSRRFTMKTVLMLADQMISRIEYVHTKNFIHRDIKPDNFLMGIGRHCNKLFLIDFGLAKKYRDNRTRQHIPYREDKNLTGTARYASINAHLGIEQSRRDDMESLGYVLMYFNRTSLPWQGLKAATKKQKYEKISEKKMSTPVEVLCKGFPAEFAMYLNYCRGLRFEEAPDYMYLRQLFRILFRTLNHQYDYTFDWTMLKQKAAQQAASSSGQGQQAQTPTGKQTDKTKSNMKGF
Sequence of UniProt P21802 (whole entry, looked up): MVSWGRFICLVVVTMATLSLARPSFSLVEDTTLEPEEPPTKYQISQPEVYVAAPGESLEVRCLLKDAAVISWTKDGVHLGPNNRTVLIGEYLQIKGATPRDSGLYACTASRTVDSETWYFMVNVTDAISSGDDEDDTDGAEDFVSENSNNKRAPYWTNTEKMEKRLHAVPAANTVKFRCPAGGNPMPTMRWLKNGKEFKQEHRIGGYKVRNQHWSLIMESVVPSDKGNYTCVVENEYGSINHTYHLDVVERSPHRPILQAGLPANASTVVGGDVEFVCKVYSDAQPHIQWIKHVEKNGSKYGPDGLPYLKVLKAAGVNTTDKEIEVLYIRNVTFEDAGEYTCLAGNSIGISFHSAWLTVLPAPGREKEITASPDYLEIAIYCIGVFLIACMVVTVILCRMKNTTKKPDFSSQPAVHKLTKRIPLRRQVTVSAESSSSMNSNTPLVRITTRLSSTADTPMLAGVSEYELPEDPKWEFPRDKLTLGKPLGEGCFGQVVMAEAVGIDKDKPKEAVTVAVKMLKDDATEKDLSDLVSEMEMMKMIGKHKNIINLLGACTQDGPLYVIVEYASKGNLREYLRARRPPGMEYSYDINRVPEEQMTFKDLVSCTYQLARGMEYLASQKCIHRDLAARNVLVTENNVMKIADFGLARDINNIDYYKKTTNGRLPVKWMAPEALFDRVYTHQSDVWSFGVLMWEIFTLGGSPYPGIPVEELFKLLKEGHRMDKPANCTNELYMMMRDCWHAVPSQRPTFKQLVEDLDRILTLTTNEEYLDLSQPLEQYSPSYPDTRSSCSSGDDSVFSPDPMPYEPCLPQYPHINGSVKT
Sequence of UniProt P10721 (whole entry, unmodified, looked up): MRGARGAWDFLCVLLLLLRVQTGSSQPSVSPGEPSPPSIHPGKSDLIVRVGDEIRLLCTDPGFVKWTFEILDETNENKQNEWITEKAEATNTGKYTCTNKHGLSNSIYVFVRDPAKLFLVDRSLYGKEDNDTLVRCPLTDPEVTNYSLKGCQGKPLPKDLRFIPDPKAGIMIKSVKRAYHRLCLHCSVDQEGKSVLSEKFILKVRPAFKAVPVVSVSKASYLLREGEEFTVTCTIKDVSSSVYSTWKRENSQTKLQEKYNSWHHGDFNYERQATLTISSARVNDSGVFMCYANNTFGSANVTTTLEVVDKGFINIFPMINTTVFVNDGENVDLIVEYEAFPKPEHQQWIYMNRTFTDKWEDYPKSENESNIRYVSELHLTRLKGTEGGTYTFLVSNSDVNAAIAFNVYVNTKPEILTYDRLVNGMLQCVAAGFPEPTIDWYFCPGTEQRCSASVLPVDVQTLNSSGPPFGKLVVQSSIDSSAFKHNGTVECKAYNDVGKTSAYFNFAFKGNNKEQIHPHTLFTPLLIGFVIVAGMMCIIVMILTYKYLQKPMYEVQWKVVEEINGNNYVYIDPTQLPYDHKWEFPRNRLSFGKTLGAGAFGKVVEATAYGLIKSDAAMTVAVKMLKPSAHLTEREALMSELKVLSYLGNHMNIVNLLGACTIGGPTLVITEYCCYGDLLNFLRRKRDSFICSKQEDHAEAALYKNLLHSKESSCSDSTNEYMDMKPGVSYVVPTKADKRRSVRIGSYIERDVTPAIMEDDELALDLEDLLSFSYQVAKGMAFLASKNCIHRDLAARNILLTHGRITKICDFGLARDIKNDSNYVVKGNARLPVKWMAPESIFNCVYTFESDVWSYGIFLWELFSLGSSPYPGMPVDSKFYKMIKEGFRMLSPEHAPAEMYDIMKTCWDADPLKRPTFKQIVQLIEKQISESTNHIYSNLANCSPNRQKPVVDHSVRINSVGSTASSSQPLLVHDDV
Sequence of UniProt Q00537 (whole entry, looked up): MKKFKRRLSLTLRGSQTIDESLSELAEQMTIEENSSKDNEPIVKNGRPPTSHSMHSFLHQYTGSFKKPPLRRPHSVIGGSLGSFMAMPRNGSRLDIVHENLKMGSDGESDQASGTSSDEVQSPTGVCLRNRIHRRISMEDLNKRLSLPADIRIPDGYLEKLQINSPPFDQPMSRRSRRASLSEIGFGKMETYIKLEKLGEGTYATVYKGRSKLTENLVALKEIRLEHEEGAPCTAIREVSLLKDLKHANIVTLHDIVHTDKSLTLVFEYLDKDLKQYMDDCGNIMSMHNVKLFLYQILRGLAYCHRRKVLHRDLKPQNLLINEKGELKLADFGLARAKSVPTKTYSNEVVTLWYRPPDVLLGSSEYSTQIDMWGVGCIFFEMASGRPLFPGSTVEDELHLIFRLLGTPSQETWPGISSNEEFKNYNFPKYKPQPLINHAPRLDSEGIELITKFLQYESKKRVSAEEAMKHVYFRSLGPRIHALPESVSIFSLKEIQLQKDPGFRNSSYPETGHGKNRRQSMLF
Sequence of UniProt Q9Y2H1 (whole entry, looked up): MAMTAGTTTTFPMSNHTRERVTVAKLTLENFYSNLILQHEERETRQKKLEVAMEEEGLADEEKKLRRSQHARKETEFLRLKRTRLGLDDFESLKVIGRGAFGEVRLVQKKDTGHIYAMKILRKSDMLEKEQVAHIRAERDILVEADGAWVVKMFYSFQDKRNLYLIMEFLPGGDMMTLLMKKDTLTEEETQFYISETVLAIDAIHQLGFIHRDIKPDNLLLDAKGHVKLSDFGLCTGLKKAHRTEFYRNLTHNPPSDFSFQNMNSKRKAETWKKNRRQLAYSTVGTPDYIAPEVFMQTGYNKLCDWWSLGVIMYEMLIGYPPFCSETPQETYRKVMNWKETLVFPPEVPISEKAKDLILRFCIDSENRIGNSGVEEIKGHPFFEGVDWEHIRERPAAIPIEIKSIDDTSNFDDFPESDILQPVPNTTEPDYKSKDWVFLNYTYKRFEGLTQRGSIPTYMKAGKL
Sequence of UniProt P0C264 (whole entry, looked up): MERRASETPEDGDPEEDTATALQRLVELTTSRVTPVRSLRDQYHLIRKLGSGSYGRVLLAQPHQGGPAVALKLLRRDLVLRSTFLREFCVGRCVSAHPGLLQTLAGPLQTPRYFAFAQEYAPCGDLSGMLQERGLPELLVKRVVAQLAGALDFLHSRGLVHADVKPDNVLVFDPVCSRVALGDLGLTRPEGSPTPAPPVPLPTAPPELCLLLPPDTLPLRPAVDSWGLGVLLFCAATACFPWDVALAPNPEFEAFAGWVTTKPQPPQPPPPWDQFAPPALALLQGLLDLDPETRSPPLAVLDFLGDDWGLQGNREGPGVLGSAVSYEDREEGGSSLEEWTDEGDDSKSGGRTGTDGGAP
Sequence of UniProt P24723 (whole entry, looked up): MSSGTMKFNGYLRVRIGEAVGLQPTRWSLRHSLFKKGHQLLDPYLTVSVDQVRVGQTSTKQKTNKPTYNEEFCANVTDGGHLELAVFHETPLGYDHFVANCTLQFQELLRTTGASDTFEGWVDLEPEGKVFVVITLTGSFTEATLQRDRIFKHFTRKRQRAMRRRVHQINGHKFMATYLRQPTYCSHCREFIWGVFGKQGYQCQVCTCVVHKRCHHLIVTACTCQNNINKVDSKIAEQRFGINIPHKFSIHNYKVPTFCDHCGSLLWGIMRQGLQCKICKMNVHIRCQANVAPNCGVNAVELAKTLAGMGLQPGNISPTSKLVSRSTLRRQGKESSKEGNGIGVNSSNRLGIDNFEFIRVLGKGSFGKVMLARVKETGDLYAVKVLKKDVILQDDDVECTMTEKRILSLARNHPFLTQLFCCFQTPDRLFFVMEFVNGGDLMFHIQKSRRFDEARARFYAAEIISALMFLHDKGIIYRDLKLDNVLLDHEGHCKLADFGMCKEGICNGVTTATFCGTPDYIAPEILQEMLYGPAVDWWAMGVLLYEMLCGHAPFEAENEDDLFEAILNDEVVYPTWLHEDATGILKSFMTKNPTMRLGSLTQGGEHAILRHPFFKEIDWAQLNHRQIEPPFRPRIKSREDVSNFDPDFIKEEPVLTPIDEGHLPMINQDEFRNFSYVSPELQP
Sequence of UniProt Q9UQM7 (whole entry, looked up): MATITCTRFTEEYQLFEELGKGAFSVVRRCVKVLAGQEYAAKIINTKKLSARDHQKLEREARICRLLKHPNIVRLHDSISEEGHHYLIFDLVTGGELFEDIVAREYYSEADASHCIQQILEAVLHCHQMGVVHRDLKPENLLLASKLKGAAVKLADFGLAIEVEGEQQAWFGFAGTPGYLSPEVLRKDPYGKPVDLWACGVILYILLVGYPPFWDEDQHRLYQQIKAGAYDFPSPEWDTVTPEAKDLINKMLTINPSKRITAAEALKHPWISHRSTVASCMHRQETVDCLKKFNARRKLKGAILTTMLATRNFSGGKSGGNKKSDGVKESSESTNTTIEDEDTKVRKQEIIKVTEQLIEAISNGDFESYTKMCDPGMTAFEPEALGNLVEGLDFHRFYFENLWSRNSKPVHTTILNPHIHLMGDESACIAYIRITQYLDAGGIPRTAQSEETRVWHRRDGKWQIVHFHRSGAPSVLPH

Study 1
Structure (SMILES): c1ccc(Oc2ccc(Nc3c4c(nc5ccccc35)CCC4)cc2)cc1
For RAW264.7; resazurin; 3.32 µM: cytotoxicity read -9% and -8%.
For RAW264.7; resazurin; 0.0066 µM, 64 h: cytotoxicity read -1% and -4%.
For PMA-differentiated THP-1 macrophages; 0.4 µM, 64 h: cytotoxicity read -1% and 5%.
For J774.1; resazurin; 0.166 µM: cytotoxicity read -3% and -5%.
RAW264.7; resazurin; 0.166 µM — cytotoxicity: -6% and -2%.
It gave 7% and 2% for cytotoxicity (PMA-differentiated THP-1 macrophages; 0.004 µM, 64 h).
It gave 6% for cytotoxicity (HEK293; resazurin; 0.066 µM, 10% serum).
RAW264.7; resazurin; 0.0332 µM — cytotoxicity: -5% and 6%.

Study 2 — read-out: enzyme activity; action: inhibitor; concentration: 0.5 µM; relative to: control
Target: Cyclin-dependent kinase 7 (CDK7, Homo sapiens, UniProt P50613)
Sequence of UniProt P50613 (whole entry, looked up): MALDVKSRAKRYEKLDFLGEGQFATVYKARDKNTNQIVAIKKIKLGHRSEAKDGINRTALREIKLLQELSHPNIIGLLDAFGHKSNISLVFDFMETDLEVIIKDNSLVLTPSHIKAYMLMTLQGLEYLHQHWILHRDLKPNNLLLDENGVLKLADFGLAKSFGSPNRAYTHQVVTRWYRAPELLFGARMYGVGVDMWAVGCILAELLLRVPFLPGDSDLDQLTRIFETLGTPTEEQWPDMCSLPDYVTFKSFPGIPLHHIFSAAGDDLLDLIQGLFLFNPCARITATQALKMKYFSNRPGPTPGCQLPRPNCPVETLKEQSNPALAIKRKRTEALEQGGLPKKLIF
For `O=C(CCCc1ccc(-c2ccccc2F)cc1)Nc1ccc(O)cc1`, the remaining activity was 101%.
For `COc1ccc(C(=O)Nc2sc3c(c2C(N)=O)CCCC3)cc1OC`, the remaining activity was 99.9%.
`O=C(Nc1cccc(Nc2cc(Nc3cccc(C(F)(F)F)c3)ncn2)c1)C1CC1` has a remaining activity of 97.6%.
With `Cc1ccc(Nc2nccc(N(C)c3ccc4c(C)n(C)nc4c3)n2)cc1S(N)(=O)=O` the remaining activity was 103%.
The remaining activity of `COc1ccc(CNC(=O)Nc2ncc([N+](=O)[O-])s2)cc1` is reported as 94.8%.
With `COc1ccc(OC)c2c(=S)c3ccccc3[nH]c12` the remaining activity was 91.7%.
`Cn1sc(=O)n(Cc2ccccc2)c1=O` has a remaining activity of 96.8%.
`O=c1c2ccccc2[nH]c(=S)n1CCN1CCC(=C(c2ccc(F)cc2)c2ccc(F)cc2)CC1` has a remaining activity of 99.6%.
The remaining activity of `CC(C)[C@H](CO)Nc1nc(Nc2cc(N)cc(Cl)c2)c2ncn(C(C)C)c2n1` is reported as 54.7%.
With `CN(C)c1ccc(C=C2C(=O)Nc3ccccc32)cc1` the remaining activity was 99.4%.
`OCC(O)CCON=C1C(c2c(O)[nH]c3ccccc23)=Nc2ccccc21` (stereo not shown) gave a remaining activity of 77.9%.
`CNC(=O)c1cc(Oc2ccc(NC(=O)Nc3ccc(Cl)c(C(F)(F)F)c3)cc2)ccn1` gave a remaining activity of 102%.
The remaining activity of `CCOC(=O)c1c(C)[nH]c(/C=C2\C(=O)Nc3ccccc32)c1C` is reported as 96.8%.
With `COc1cc2ncnc(Nc3ccc(Oc4ccccc4)cc3)c2cc1OC` the remaining activity was 102%.
With `Cc1nc(-c2ccccc2)c(-c2ccncc2)o1` the remaining activity was 109%.

Study 3 — Structure (SMILES): CC(C)(O)c1cncc(-c2nc3ccc(F)cc3n2C2CC2)c1; read-out: cell-free assay; technique: competition with immobilised ligand; concentration: 1 µM
KIT (Homo sapiens, UniProt P10721, D816V) — remaining binding: 100%.
It gave 77% for remaining binding (SBK3 (Homo sapiens, UniProt P0C264)).
For LATS2 (Homo sapiens, UniProt Q9NRM7): remaining binding read 100%.
The remaining binding was 97% (HIPK1 (Homo sapiens, UniProt Q86Z02)).
Tyrosine-protein kinase ABL1, phosphorylated (ABL1, Homo sapiens, UniProt P00519, M351T) — remaining binding: 100%.
CAMK2A (Homo sapiens, UniProt Q9UQM7) — remaining binding: 94%.
The remaining binding was 100% (FGFR2 (Homo sapiens, UniProt P21802)).

Study 4 — action: inhibitor; concentration: 1 µM
SMILES: C=CC(=O)N1CCC[C@@H](n2nc(-c3ccc(Oc4ccccc4)cc3)c3c(N)ncnc32)C1
It gave 13% for inhibition (PRKCH (Homo sapiens, UniProt P24723)).
For CDK17 (Homo sapiens, UniProt Q00537); enzyme activity: inhibition read 3%.
STK38L (Homo sapiens, UniProt Q9Y2H1); enzyme activity — inhibition: 10%.
It gave 19% for inhibition (CSNK1A1 (Homo sapiens, UniProt P48729); enzyme activity).

Some of these lines once more (study 1):
For PMA-differentiated THP-1 macrophages; 0.4 µM, 64 h: cytotoxicity read -1% and 5%.
RAW264.7; resazurin; 0.0332 µM — cytotoxicity: -5% and 6%.
RAW264.7; resazurin; 0.166 µM — cytotoxicity: -6% and -2%.
It gave 6% for cytotoxicity (HEK293; resazurin; 0.066 µM, 10% serum).
For RAW264.7; resazurin; 0.0066 µM, 64 h: cytotoxicity read -1% and -4%.
